Results of several laboratories.
Every numbered part comes from another study and shows a few of its results, in no order. Substitutions count along the parent as printed.

Study 1 — target: CCNF, cyclin fold, Cln2 fusion (human); technique: yeast growth competition, sequencing; sample: yeast; notes: strong parent motif; reference: not given; direction: higher = stronger binding
Starting sequence: RBL1 docking peptide (human); GSAKRRLFGEDPP; partner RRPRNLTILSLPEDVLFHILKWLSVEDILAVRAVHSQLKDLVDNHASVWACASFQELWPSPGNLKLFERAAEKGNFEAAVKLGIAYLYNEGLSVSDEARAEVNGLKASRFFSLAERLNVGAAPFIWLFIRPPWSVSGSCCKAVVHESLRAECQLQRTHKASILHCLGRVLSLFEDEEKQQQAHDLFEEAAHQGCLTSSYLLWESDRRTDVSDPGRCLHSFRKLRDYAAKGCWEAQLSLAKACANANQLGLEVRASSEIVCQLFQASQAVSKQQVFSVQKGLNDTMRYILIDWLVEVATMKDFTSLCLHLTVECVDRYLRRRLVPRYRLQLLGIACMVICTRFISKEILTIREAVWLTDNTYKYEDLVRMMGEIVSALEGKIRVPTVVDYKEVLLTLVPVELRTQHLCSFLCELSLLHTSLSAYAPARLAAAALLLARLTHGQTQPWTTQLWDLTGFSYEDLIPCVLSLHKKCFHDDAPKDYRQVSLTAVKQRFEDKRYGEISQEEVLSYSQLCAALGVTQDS
Variant	normalised enrichment score
GSAKRRTFGEDPP [L7T]	0.0952
GSAKRRLFGEDPH [P13H]	6.67
GSAKRRLFGNDPP [E10N]	6.7
GSAKRRLFGEKPP [D11K]	7.01
GSAKRRLFGEDAP [P12A]	6.45
GSAKRRHFGEDPP [L7H]	-0.161
GSAKRRLFGEDQP [P12Q]	7.01
GSAKRRLFGEDPY [P13Y]	6.61
GSAKRDLFGEDPP [R6D]	-0.123
YSAKRRLFGEDPP [G1Y]	9.39
GSAKRILFGEDPP [R6I]	3.82
GSAKRRLFKEDPP [G9K]	6.69
GSAKRRLDGEDPP [F8D]	1.11
GSAKRRDFGEDPP [L7D]	-0.268
GSAKRRLFGECPP [D11C]	7.69
GSAKRRLFGEDPI [P13I]	7.96
GSAKSRLFGEDPP [R5S]	0.712
GSGKRRLFGEDPP [A3G]	2.86
GSMKRRLFGEDPP [A3M]	3.12
GSAKRRLFWEDPP [G9W]	7.99
GSVKRRLFGEDPP [A3V]	8.74
GSACRRLFGEDPP [K4C]	6.79
GSYKRRLFGEDPP [A3Y]	4.7
GSAKRRLFGEVPP [D11V]	6.87
GSAKRRLFGIDPP [E10I]	6.94

Study 2 — technique: RNA Bind-n-Seq; form: RNA; sample: in vitro; concentration: 200 nM; notes: whole 134-nt RNA, ends assumed; with: 150 mM LiCl; reference: input library; direction: higher = stronger binding; library: 7-deaza-guanosine replaces G
Target: Fragile X messenger ribonucleoprotein 1, C-terminal low-complexity region (Fmr1, Mus musculus, UniProt P35922)
All sequences stand within: GGGAGUUCUACAGUCCGACGAUC … UGGAAUUCUCGGGUGUCAAGG
Sequence	log2 enrichment
CACAGACAACACGCACCCACACAGACACAGCGGGAAGGGGUUGGGAUGGGGACAGGGUGCACAGCAGGGCGGGGUAGGACCCCAGCCCCU	-0.295
GCAGGAAGUAAAAACAAAUGGAAAUGCUUCGGAUAGUGGCAGGGGUGGGGGUUGCUAAGGAAAGGGUGGGAUGGGAGUGGGUAAACAGUU	1.03
GCAGGAAGUAAAAACAAAUGGAAAUGCUUCGGAUAGUGGCAGGGGUGGGGGUUGCUAAGGAAAGGGUGGAAAGGGAGUGGGUAAAGAGUU	1.54
CCUCAAGUCCUGUGCUACACAUCGUAUGUACCGAAUCGGAGGGGAGGGAGGGAAAGUAUUAUGUUACGCCGUUCGGAUCUGCACUUCCAG	-0.467
GUCCUGUGCUACACAUCGUAUGUACCGAAUCGGUUUUUUUGGUUUUUUUGGAAAAAGGAAAGUAUUAUGUUACGCCGUUCGGAUCUGCAC	-2.08
AAGUCCUGUGCUACACAUCGUAUGUACCGAAUCGGGGAAAGGGGAAAGGAAAGGGGAAAGUAUUAUGUUACGCCGUUCGGAUCUGCACUU	0.135
UGCUUCAGACCAAGCGGAGCUCCCGGAGGCAAAGCCUGGAGCUGCAGAAGUGUGAAGAGAUCCUCCACAAGAUCGUGAAGUACCGCUUCA	-3.33
UCAAGUCCUGUGCUACACAUCGUAUGUACCGAAUCGGGUGGGAGGGUUUUUGGGAAAGUAUUAUGUUACGCCGUUCGGAUCUGCACUUCC	-1.58
CCUGUGCUACACAUCGUAUGUACCGAAUCGGGAAAAAAAGGGAAAAAAAGGAAAAAAAGGGAAAGUAUUAUGUUACGCCGUUCGGAUCUG	-0.0269
AAGUCCUGUGCUACACAUCGUAUGUACCGAAUCGGGAAAAGGGAAAAGGGAAAAGGAAAGUAUUAUGUUACGCCGUUCGGAUCUGCACUU	-0.683
CUCAAGUCCUGUGCUACACAUCGUAUGUACCGAAUCGGGAGGGGAGGGGAGGGAAAGUAUUAUGUUACGCCGUUCGGAUCUGCACUUCCA	-0.536

Study 3 — technique: RNA Bind-n-Seq; form: RNA; sample: in vitro; concentration: 365 nM; reference: no-protein control; direction: higher = stronger binding
Target: RNA binding protein fox-1 homolog 2, RRM domain, GST-SBP tag (RBFOX2, Homo sapiens, UniProt O43251-10, residues 100-194)
Notes: natural RNA segment, single round, ends assumed
All sequences stand within: GGGAGUUCUACAGUCCGACGAUC … UGGAAUUCUCGGGUGCCAA
Residues (chain): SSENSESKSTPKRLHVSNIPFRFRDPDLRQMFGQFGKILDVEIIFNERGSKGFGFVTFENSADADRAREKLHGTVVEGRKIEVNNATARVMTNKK
Sequence	RBNS enrichment (R)
UGCAGGUUCUGAAGAAUGCUCGGGCCAUGGCAGAUGCCCUGCUAGAGCGAGGCUACUCACUGGUAUCAGGUGGUACUGACAACCACCUGGUGCUGGUGGACCUGCGGCCC	0.266
GGGGUGCAGCCUAAAAGGACCUAUGUCCUCACACCAUUGAAACCACUAGUUCUGUCCCCCCAGGAGACCUGGUUGUGUGUGUGUGAGUGGUUGACCUUCCUCCAUCCCCU	0.241
CUUAGAGGUCUGGGGCUGGAAGUCCAGACGGCGCAGGAGCAGUGUUGGGAAGGCUUUGCGUCCUGCCUGCAGACUUGCUAGAGCUGUGGUGAUUAACCCUGGCUGUUGAA	0.287
GUAUUCUUAAACCGCAUGACUAUUCAGAUGGCUACUGAGUUAUCAGUGGCCAUUUAUUAGCAUCAUAUUUAUUUGUAUUUUCUCAACAGAUGUUAAGGUACAACUGUGUU	0.356
UAUGGACAGGGUCCCCUCCUGCUGUCCCUCCCUGCUCACACUUGCUCAGAUGCUGCAGUGCAGGGGCUUCAGCAUUCUUGAGUUCCUCCGUGUUAAUAAAAACAUCCUGU	0.335
GACCAUUCACACUGAUUUUGUCUGGACAGUCUGGCCGCAGGUUAUUCAUAGAUUAUUCAGCCUUUGCAGGACUUGGAUUCAGGGUUUUACUCAGUCCCUUUACCUUAGGU	0.31
ACCCUGUUAUGCCUUUCUCAGGCUCAUGAUAAAUGUAUUAGUCUGUUCUCAUGCUGCUAUUAAAGACAUACCUGACACUGGGUAAUUUAUAAAGGAAAGAGGUUUAAUGG	0.825
CUUCCUUGACAUCCAGUUCCUCCUUCAGGCUCAAACACCACCUCCUUUCUUCAGGACCUGCACUUAAUGUUUGAGGCUGUCUCUCCAGUCCCUCUCAGCAGGAGGGGUAA	0.725
UAAGUAAAAUCAUUGUUCCAUUCUUAUACAUUUGAAUGUGAUGGUGACCUUUGAAACAAUUCCAGGGGCAUUCUCAAGUAUUUGAUACCUAGGGGUUUAGUAACUCAGAC	0.289
UUGGGAGAAAUGAUACACUUGGUCUCAUUAUGUGAAGCGGGGUGGGGAUAACGAGACAGGGAAAUGGCCGCCAUGGUGGCCUGCUCCCUGCCAACACUAAUGUUCCCCAC	0.314
UGGAGCCCAGGCGAGGGGGACGGCAAGGGCCUGUCUUUGUGCUCUGCCCCACCUAGCCUGGGCAGCAGGGCUGCCAAGGUCAGAAUGGCCUGGCUAGGAGCCCUUCAGGC	0.283
GAGUCAUGAGGGUAGUGGGCUAAGUCGAGGGUCCAGCCUCUUCUGCCAGGAAGCCCUUCUUGCUUUUGAGAGAGGCUGUGACCACCCCCCAUCCUUCUCCCUACACUCCC	0.282

Study 4 — technique: protein-binding microarray; form: double-stranded DNA, one strand shown; sample: in vitro; concentration: 2540 nM top; notes: 60-bp whole probe; with: salmon DNA 0.4 mg/ml; reference: random background probes; direction: higher = stronger binding; all sequences stand within: GCCTAGCAC … GTCTTGATTCGCTTGACGCTGCTG
Target: Interferon regulatory factor 3, full length, phosphomimetic (IRF3, Homo sapiens, UniProt Q14653, residues 1-427, S386D/S396D/S398D/S402D/T404D/S405D)
UniProt Q14653, sequence (whole entry, unmodified, looked up): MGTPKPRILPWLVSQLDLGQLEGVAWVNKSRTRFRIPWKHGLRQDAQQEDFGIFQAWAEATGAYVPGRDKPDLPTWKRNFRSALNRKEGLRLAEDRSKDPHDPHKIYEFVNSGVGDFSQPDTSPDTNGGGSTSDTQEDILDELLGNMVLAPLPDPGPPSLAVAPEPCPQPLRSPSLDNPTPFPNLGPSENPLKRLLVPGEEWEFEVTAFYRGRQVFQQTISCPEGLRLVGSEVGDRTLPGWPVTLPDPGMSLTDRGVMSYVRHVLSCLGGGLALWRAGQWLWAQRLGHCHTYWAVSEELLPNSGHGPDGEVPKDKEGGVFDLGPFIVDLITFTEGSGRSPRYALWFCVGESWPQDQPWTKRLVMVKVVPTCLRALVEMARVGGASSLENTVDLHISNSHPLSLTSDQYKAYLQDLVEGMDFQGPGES
Sequence	fitted relative affinity
GACGGACTGGTGACTGGGGACGTGCTA	-0.864 z-score
TCTACTTCTCTTTTTGCTTTGTGCTAG	2.18 z-score
GACGAACTGAGTCTCCAGACGTGCTAG	-0.00488 z-score
TCACTCGTCTCTATCAAACTGTGCTAG	0.175 z-score
GACGATGTCAGTCTCGAGACGTGCTAG	0.121 z-score
TTAGTTTTCGGTTCCGGTTAGTGCTAG	7.78 z-score
TCATGTTTTTTTCTACTTCTGTGCTAG	0.731 z-score
TCAACTTTTTTTTTTCCACTGTGCTAG	0.8 z-score
TTAGGTTTCGGACTGGGGTAGTGCTAG	4.08 z-score
GACGGTATCGGTTTCGGGTCGTGCTAG	7.33 z-score
TTAGGACAGGACTATCGGTTAGTGCTA	-0.111 z-score
TTAGGTATCGACAATCGGTTAGTGCTA	0.0576 z-score
TTATGTTTCGGGACTGGGTTAGTGCTA	3.23 z-score
GACGGTCTCCTACTGCTGAAGTGCTAG	1.24 z-score

Other studies, line by line
Substance	target	test	test system	setting	how to read	measurement	result
PhoQ, residues 284 288 289 292 302 303 NLGVHL	PhoP, residues 12 14 15 18 19 FWNTL (Escherichia coli, UniProt P23836)	Sort-seq, item: YFP reporter	E. coli	PhoQ-PhoP variant library, with: 10 µM Mg2+	reference: high Mg2+ state, higher = stronger signaling	fold induction	4.66

Repeated from above (study 2):
Sequence	log2 enrichment
AAGUCCUGUGCUACACAUCGUAUGUACCGAAUCGGGAAAAGGGAAAAGGGAAAAGGAAAGUAUUAUGUUACGCCGUUCGGAUCUGCACUU	-0.683
CCUGUGCUACACAUCGUAUGUACCGAAUCGGGAAAAAAAGGGAAAAAAAGGAAAAAAAGGGAAAGUAUUAUGUUACGCCGUUCGGAUCUG	-0.0269
CACAGACAACACGCACCCACACAGACACAGCGGGAAGGGGUUGGGAUGGGGACAGGGUGCACAGCAGGGCGGGGUAGGACCCCAGCCCCU	-0.295
UGCUUCAGACCAAGCGGAGCUCCCGGAGGCAAAGCCUGGAGCUGCAGAAGUGUGAAGAGAUCCUCCACAAGAUCGUGAAGUACCGCUUCA	-3.33
